Assay results gathered from unrelated publications.
Each line is one published result; not all experiments were run side by side. Numbers after ± are the reported error.

COc1ccc(-n2nc(C(N)=O)c3c2C(=O)N(c2ccc(N4CCCCC4=O)cc2)CC3)cc1
ED50 (human, plasma; oral, Base population PK model): 25.4 ± 5.43 mg

CC(C)(C)c1ccc(O)c(CN(Cc2cc(C(C)(C)C)ccc2O)C2CCC(NC(N)=O)CC2)c1 (stereo not drawn)
terminal elimination rate constant (C57BL/6 mice, male, brain; intraperitoneal, 25 mg/kg, single dose): 1.94e-05 s⁻¹

CC[C@H](C)[C@H](NC(=O)[C@H](Cc1ccccc1)NC(=O)[C@H](CCC(=O)O)NC(=O)[C@H](CCCCNC(=O)COCCOCCNC(=O)COCCOCCNC(=O)CC[C@H](NC(=O)CCCCCCCCCCCCCCCCC(=O)O)C(=O)O)NC(=O)[C@H](C)NC(=O)[C@H](C)NC(=O)[C@H](CCC(N)=O)NC(=O)CNC(=O)[C@H](CCC(=O)O)NC(=O)[C@H](CC(C)C)NC(=O)[C@H](Cc1ccc(O)cc1)NC(=O)[C@H](CO)NC(=O)[C@H](CO)NC(=O)[C@@H](NC(=O)[C@H](CC(=O)O)NC(=O)[C@H](CO)NC(=O)[C@@H](NC(=O)[C@H](Cc1ccccc1)NC(=O)[C@@H](NC(=O)CNC(=O)[C@H](CCC(=O)O)NC(=O)C(C)(C)NC(=O)[C@@H](N)Cc1cnc[nH]1)[C@@H](C)O)[C@@H](C)O)C(C)C)C(=O)N[C@@H](C)C(=O)N[C@@H](Cc1c[nH]c2ccccc12)C(=O)N[C@@H](CC(C)C)C(=O)N[C@H](C(=O)N[C@@H](CCCNC(=N)N)C(=O)NCC(=O)N[C@@H](CCCNC(=N)N)C(=O)NCC(=O)O)C(C)C
QT change from baseline (12-lead Holter ECG; healthy humans; subcutaneous, 1.5 mg once weekly, 25 h, steady state; reference: placebo): -21.1 ms

CNCc1ccc(-c2[nH]c3cc(F)cc4c3c2CCNC4=O)cc1
anaemia incidence (patients; oral, 600 mg twice daily, grade 2): 7.7%

O=C(O)CCc1ccc(O)c(OS(=O)(=O)O)c1
CSF concentration (human CSF; concentration not given, mean): not detected

Cc1noc(C)c1Cn1cc(N2C(=O)CN(Cc3cccc(O)c3)C2=O)cn1
parent remaining (Sprague-Dawley rat liver microsomes; 10 µM, 10 min, pH 7.4): 95%

OC[C@H]1O[C@@H](c2ccc(Cl)c(Cc3ccc(O[C@H]4CCOC4)cc3)c2)[C@H](O)[C@@H](O)[C@@H]1O
change in uric acid (Japanese type 1 diabetes patients, blood; 2.5 mg, day 28; reference: baseline): -0.49 µmol/L

O=c1oc2cc(O)ccc2c2ccc(O)cc12
CSF concentration (human CSF; concentration not given, mean): not detected

CC(C)NCC(O)c1ccc(NS(C)(=O)=O)cc1 (racemic)
heart rate (male Hartley guinea pigs, anaesthetized; intravenous, 10 mg/kg over 10 min, after infusion): 150 ± 0.6 beats/min

CO[C@@H]1[C@H](OC(=O)N2CC(CCN3CCOCC3)C2)CC[C@]2(CO2)[C@H]1[C@@]1(C)O[C@@H]1CC=C(C)C
activated partial thromboplastin time (humans; subcutaneous, 0.2 mg twice weekly for 4 weeks, day 28; reference: baseline): -1 ± 1.2 s

CCN1/C(=C/C(C)=O)Sc2ccc(F)cc21
QTc interval (Bazett) (cynomolgus monkey; oral, 10 mg/kg, 24 h post-dose): 317 ± 14 ms

CNc1ccc(-c2nc3ccc(O)cc3s2)cc1 [carbon-11 labelled]
uptake (ex vivo biodistribution; APP/PS1 Alzheimer mice, gut; intravenous, 30 min): 6.44 ± 1.46 SUV

CN(C(=O)n1cnc(-c2cccnc2)c1)C1CCCCC1
tissue concentration (Wistar rat, cerebral cortex; oral, 10 mg/kg, 4 h, single dose): 35.8 ± 6.8 ng/g

O=C(O)C=Cc1ccc(O)c(OS(=O)(=O)O)c1
CSF concentration (human CSF; concentration not given, mean): not detected

Nc1ccc(-c2ccncc2)cc1NC(=O)N1CCCC1
absorption rate constant (ka) (C57BL/6 mouse, male, plasma and brain; intraperitoneal, 10 mg/kg): 6 h⁻¹

C=CC(=O)N1CCC[C@@H](n2nc(-c3ccc(Oc4ccccc4)cc3)c3c(N)ncnc32)C1
dissolved amount (USP type II dissolution; powder; 120 min, pH 1.2): 49.1%

CCO[C@H]1CCN(Cc2c(OC)cc(C)c3[nH]ccc23)[C@H](c2ccc(C(=O)O)cc2)C1
incidence of abdominal distension (PNH patients, active haemolysis; oral, 25 mg, 4 weeks, treatment): 14.3%

N#Cc1ccc2c(c1)[C@H]1CCCN(C(=O)c3ccc4[nH]cnc4c3)[C@H]1C2
pre-dose plasma concentration (human, plasma; 20 mg once daily, day 7): 506 nmol/L

Cc1cc(C)c(CNC(=O)c2cc(Cl)c3c(c2C)O[C@@](C)([C@H]2CC[C@H](N(C)C)CC2)O3)c(=O)[nH]1
patients with TEAE (measured: Diarrhea; human patients; oral, 200 mg once daily, 1 day onset day 14): 8.3%

CNC(=O)c1ccc(-c2cnc3ncc(Cc4ccc5ncccc5c4)n3n2)cc1F
patients with adverse event (measured: Pyrexia, all grades; gastric cancer patients; oral, 600 mg twice daily, expansion cohort, any causality): 22%

CCCCCCCCCCNCc1ccc(CNC(=O)c2csc3nc[nH]c(=O)c23)cc1
EC50 (human red blood cells in PBS; 1 h, 37 °C, estimated, weak activity): > 100 µM

CCN1CCN(Cc2ccc(Nc3ncc(F)c(-c4cc(F)c5nc6n(c5c4)[C@H](C)CCC6)n3)nc2)CC1
AUC(0-tau) (human, plasma; 300 mg multiple dosing, mean): 7390 ng·h/mL

Cc1cc(-c2nccc3c2ccn3CC(=O)Nc2ccc(-c3cnccn3)cn2)ccn1
subjects with Photophobia adverse event (human; 15 mg once daily, multiple ascending dose): 11.1%

CCOc1c([C@H](C)n2nc(C)c3c(N)ncnc32)cc(Cl)c(F)c1[C@@H]1CNC(=O)C1
Cmax geometric mean (patients, monotherapy; oral, 20 mg once daily, cycle 1 day 15): 1220 nM

NC(N)=NCCC[C@@H](N)C(=O)N[C@@H](CCCN=C(N)N)C(=O)N1CCC[C@H]1C(=O)N1C[C@H](O)C[C@H]1C(=O)NCC(=O)N[C@@H](Cc1cccs1)C(=O)N[C@@H](CO)C(=O)N1Cc2ccccc2C[C@@H]1C(=O)N1[C@H](C(=O)N[C@@H](CCCN=C(N)N)C(=O)O)C[C@@H]2CCCC[C@@H]21
peripheral clearance (Q/F) (popPK base model typical value; human; subcutaneous, reference weight 70 kg): 0.397 L/h

COc1cc2nccc(Oc3ccc(NC(=O)c4cc5c(n(-c6ccccc6)c4=O)CCCC5=O)nc3)c2cc1OC
grade ≥3 Hyperkalaemia patients (relapsed or refractory AML; oral, 6 mg once daily): 0%

Cn1cc(Nc2nccc(-c3ccc4c(c3)CN(C3COC3)CC[C@H]4NC(=O)c3cn(C(C)(C)C)nn3)n2)cn1
non-switched memory B cell change (human, whole blood; 50 mg twice daily, day 14; reference: pre-dose baseline): -18.7%

CN(CCC(=O)O)C(=O)c1ccc2c(c1)CC[C@@H]1[C@@H]2CC[C@]2(C)C(c3cncc(F)c3)=CC[C@@H]12
indirect bilirubin change (premenopausal women, endometriosis pain, serum; 60 mg twice daily, visit 5, mean; reference: baseline): 0.61 mg/dL

Cc1cc(OCCOCCC(F)(F)P(=O)(O)O)ccc1CCc1cnc2c(N)nc3cc(CCC(=O)O)ccc3c2c1
AUC(tau) (human, serum; intratumoral, 100 µg every 2 weeks, cycle 1 day 1): 15 ng·h/mL

CCn1cc(C(=O)N2CCOCC2)c(=O)c2cc(NC3Cc4ccccc4C3)cnc21
AUC(0-inf) (human, fed; oral suspension, 1200 mg single dose, arithmetic mean): 47400 ng·h/mL

C[C@H](CS)C(=O)N1CCC[C@H]1C(=O)O
heart rate (male Hartley guinea pigs, anaesthetized; intravenous, 3 mg/kg over 10 min, after infusion): 217 ± 0.4 beats/min

CC(C)n1c(Nc2cccnc2)nc2cnc(Nc3ccc(N4CCN(C)CC4)cc3)nc21
subjects with adverse event (measured: diastolic blood pressure increased; healthy male subjects; oral, 100 mg, study, added: itraconazole): 0%

COc1cc(Nc2ncc3c(n2)-c2ccc(Cl)cc2C(c2c(F)cccc2OC)=NC3)ccc1C(=O)O
patients with adverse event (measured: oral mucositis, grade 3; cancer patients, phase 1/2; dose not given, added: pembrolizumab): 4%

CC1(C)S[C@@H]2[C@H](NC(=O)[C@H](N)c3ccc(O)cc3)C(=O)N2[C@H]1C(=O)O
heart rate (male Hartley guinea pigs, anaesthetized; intravenous, 3 mg/kg over 10 min, after infusion): 214 ± 0.2 beats/min

CCC(=O)N(CCC(c1ccc2c(c1)OCO2)c1ccccc1OC)Cc1ccccc1 (stereo not drawn)
albumin/globulin ratio (mouse, blood; i.p., 60 mg/kg twice daily, 2 weeks): 0.675

CNCCOC12CC3(C)CC(C)(CC(Cn4ncc(-c5ccc(N6CCc7cccc(C(=O)Nc8nc9ccccc9s8)c7C6)nc5C(=O)O)c4C)(C3)C1)C2
heart rate change (beagle dog, male, anaesthetised; intravenous bolus, 0.03 mg/kg, 15 min; reference: baseline): 9%

C=CC(=O)NC1CCN(c2ncc3ncnc(Nc4ccc(Oc5ccc6c(c5)ncn6C)c(C)c4)c3n2)CC1
parent share of total radioactivity (healthy male volunteers, urine; oral, 60 mg, 14C-labelled): ~10%

CCc1cc(C(=O)NC)c2nccc(N3CCc4c(cc(Cn5ccnc5)cc4-c4cn(C)nc4C(F)(F)F)C3=O)c2c1
body weight (Sprague Dawley rat; oral, 100 mg/kg once daily, day 5, 7-day toxicology study): 249 ± 4.3 g

O=C(Nc1nc2cccc(-c3ccc(CN4CCS(=O)(=O)CC4)cc3)n2n1)C1CC1
treatment-emergent adverse events (measured: gastrointestinal disorders; human rheumatoid arthritis patients; oral, 300 mg once daily, 4 weeks, regardless of relatedness): 15%

Cc1nc2ccc(OCc3ccc(C(F)(F)F)cc3)cc2[nH]1
terminal elimination rate constant (Balb/c mice, male, plasma; oral, 10 mg/kg): 2.78e-05 ± 2.78e-05 s⁻¹

C[C@@H](Nc1cc(F)cc(F)c1)c1cc(C(=O)N(C)C)cc2c(=O)cc(N3CCOCC3)oc12
AUC(tau) (human; oral, 60 mg twice daily, 5:2 schedule, steady state, geometric LSM, added: abiraterone 1000 mg): 1560 ng·h/mL

O=C(O)CCC(=O)O.[2H]C([2H])([2H])Oc1cc(C)c2[nH]ccc2c1CN1CC[C@@H](C2CC2)C[C@H]1c1ccc(C(=O)O)cc1
subjects with TEAE Anemia (multiple ascending dose; healthy Chinese subjects; 50 mg twice daily): 0%

COc1cc(C(=O)N2CCC3(CC2)CC(=O)c2c(cnn2C(C)C)C3)cc(-c2ccc(C(=O)O)cc2)n1
placebo-adjusted change from baseline (measured: total cholesterol; human, fasting serum; 3 mg every 12 h, day 13, adjusted geometric mean; reference: baseline and placebo): 2.4%

Cl.[2H]C([2H])([2H])CC(=O)c1cnc(NC(=O)C2CC2)cc1Nc1cccc(-c2ncn(C([2H])([2H])[2H])n2)c1OC
Tmax (median; human; oral, 10 mg once daily, day 1, fasted, liquid, multiple dose): 48 min

CC(C(=O)NCC(=O)NCC(CNC(=O)CNC(=O)C(C)N1CCN(CC(=O)[O-])CCN(CC(=O)[O-])CCN(CC(=O)[O-])CC1)(CNC(=O)CNC(=O)C(C)N1CCN(CC(=O)[O-])CCN(CC(=O)[O-])CCN(CC(=O)[O-])CC1)CNC(=O)CNC(=O)C(C)N1CCN(CC(=O)[O-])CCN(CC(=O)[O-])CCN(CC(=O)[O-])CC1)N1CCN(CC(=O)[O-])CCN(CC(=O)[O-])CCN(CC(=O)[O-])CC1.[Gd+3].[Gd+3].[Gd+3].[Gd+3] (stereo not drawn)
cumulative fecal excretion (ICP-MS; cynomolgus monkey, feces; 3 days post-injection; reference: dose): 0.3%

N#Cc1ccc2c(c1)[C@H]1CCCN(C(=O)c3ccc4[nH]cnc4c3)[C@H]1C2
mean ACTH level (human; 360 mg, end of trial): 5.3 pmol/L

CN(CCC#N)C1CCN(C(=O)Cn2cc(NC(=O)c3cnn4cccnc34)c(-c3cc(Cl)ccc3OC(F)F)n2)CC1
reticulocyte count change (human, single ascending dose; 0.15 mg, day 4; reference: baseline): 6 10⁹/L

COc1c(O)cc(C(=O)O)cc1OS(=O)(=O)O
CSF concentration (human CSF; concentration not given, mean): not detected

CC(=O)Oc1ccccc1C(=O)O
heart rate (male Hartley guinea pigs, anaesthetized; intravenous, 10 mg/kg over 10 min, after infusion): 253 ± 0.5 beats/min

COc1cc(C2=CCCc3c2ccc(OC)c3OC(C)(C)c2ccc([N+](=O)[O-])s2)cc(OC)c1OC
parent drug release (non-enzymatic, no POR; phosphate buffer; 24 h, pH 7.4): 1.9%

C[C@@H](O)CCOC(=O)C[C@@H](C)O
systolic blood pressure (human; oral drink, 60 min post dose, mean): 109 mmHg

CCN1CCN(Cc2ccc(NC(=O)c3ccc(C)c(NC(=O)c4cncc(-c5cccs5)c4)c3)cc2C(F)(F)F)CC1
mean plasma concentration (LC-MS/MS; C57BL/6 mouse, plasma; intraperitoneal, 15 mg/kg single dose, 6 h): 68 ng/mL

CC(=O)N(C)[C@H]1CCN(C(=O)c2cnc3c(c2)C[C@](C)(c2ccc(F)cc2)N3)C1
adverse event duration (measured: creatine kinase increased; human; oral, 30 mg once daily): 22 days

CNC(=O)c1ccc(-c2cnc3ncc(Cc4ccc5ncccc5c4)n3n2)cc1F
Urticaria dose reduction/interruption (Japanese patients; oral, 400 mg, any grade): 2%

CO[C@H]1/C=C/O[C@@]2(C)Oc3c(C)c(O)c4c(O)c(c(/C=N/N5CCN(C)CC5)c(O)c4c3C2=O)NC(=O)/C(C)=C\C=C\[C@H](C)[C@H](O)[C@@H](C)[C@@H](O)[C@@H](C)[C@H](OC(C)=O)[C@@H]1C
incidence of AST increased (healthy human volunteers; oral, 600 mg, itraconazole cohort, added: gepotidacin 1500 mg): 0%

O=c1c2ccccc2oc2ccccc12
solubility (tricaprin-tricaprylin mixture; 60 °C, tricaprin fraction 0.36): 0.0827 mole fraction

CC(C)(C(=O)N1CCOc2c(C#N)cncc2C1)C(F)F
subjects with adverse event (measured: Gastrointestinal disorders; human; oral, 10 mg once daily, 14 days, multiple ascending dose): 12.5%
